Measured values from different studies.
Each numbered part is a random draw from the data of one study; scales do not carry over between parts.

Study 1 — method: RNA Bind-n-Seq; form: RNA; sample: in vitro; tested at: 365 nM; baseline: no-protein control; direction: higher = stronger binding
Target: RNA binding protein fox-1 homolog 2, RRM domain, GST-SBP tag (RBFOX2, Homo sapiens, UniProt O43251-10, residues 100-194)
Setting: natural RNA segment, single round, ends assumed
Constant ends, left off below: GGGAGUUCUACAGUCCGACGAUC … UGGAAUUCUCGGGUGCCAA
Construct (chain): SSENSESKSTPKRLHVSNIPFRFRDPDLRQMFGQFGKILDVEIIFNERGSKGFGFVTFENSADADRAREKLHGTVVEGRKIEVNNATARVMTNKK
Sequence	RBNS enrichment (R)
AGAGAAGACCACACCAAGGAGGCGGCCGCUGGCCCAGGAGAGAACACGGGGAGGUUUGUUUGUGUGAAAGGAAAGUAGUCCAGGCUGUCCCUGAAACUGAGUCUGUGGAC	1.1
GGCUCCUCUGUCCCACUGCUGCUUCUUGAGUGGGUGGAGUGGUGCUUAGAGGAUCUCCGAGAGGUCCCCGCAGCUCUAGGGAGAUCUGAUUUUGUGUUUUUUGUUUAAGU	4.63
AGAACUAUACUAUUUUUCCUAUGGGACAAUGGACUUUCAGGACCUCACUUCAUUUUCAGAGUUAAUGGGAUCCAUGGUGCAAACUCCAUUAGCAGUUUUAUGCUGGCGAU	0.433
UCCAGGAGAGAGCCAGGAUGCCCAGAUGAACUGACUGAAGGAAAAGCAAGAAACAGUUUCUUGCUUGGAAGCCAGGUACAGGAGAGGCAGCAUGCUUGGGCUGACCCAGC	2.3
AUUUAUUUACAGAUGGAAGUCUUUGUUUCAUGAAGCUACCAAACUUUAAAAAGAAUGUCACCCUUUUUUUUGUUUGUUAUGGAAACCAGAGAUUGUAAAAUGGAAAAAGA	0.529
CCUUUGGUGUUAAGUGUCAUUGUUUAGUUUACCCUCUGUUCUCUAUGUUGUCCUAACAAGCCAACCCCAACCAACAAUUGUUAAGCUGCUCCUUAAAAAUGAAACAGGAG	0.511
UGGGGGGCGCCGGGUGGCAAAGGACUCACCCCCGCACAGGCCCGCCUGGCUUCGAGUUGGAACCCGGACACUUGCCCCUCACUGGUGUGGAUGGAAAUCUGCCUUUCGUG	0.294
UGUUGACUCUCUUCCAUGCAUAUUUUAAGGAUUUGAAUCUGAUUUGAUUUGGAAAGUCAUGAAACUUGAACAGUUUCUGCAUUUCUUUUUUCCUUUGGCUGCCUUUUGUU	0.591
GGCUGCGGGCCAGUGCCUGCGCAUGUUUGUGCCUCUCCCCUCUCCUUGGGCAGGCCCUGGGUAGGAAGCUGGGCUCCUCCUCAAAGGGGAAGAGAGAGAUAGGGUAUAGG	0.731
AUCAUCAAAGCAUGGGUACCCCCAUCUGCAAGGGAUGGGCUUCAUCCUCCGCUAGUCCCUGUGUCCUUCCUGGGCACGGGGUGAGAGCUGUAGAAGCGGUGGGGGCACAG	1.16
UCUCAAGACUGAGCACUUCACUAAAUGGUAGAUUUUACUGUUAAAGACCCUACAAUAAGAUUGUUUUAUCUGUACAUUUUUUCAGAUAUUUAACUGUAUAAAAAUGUUCA	0.496
GCAUUGAUUUAUGUUCCAGACAAAAAUAACACAAAUAAUAAUAUCCUUCGUUAUAACCACAAUGAGAUAAGUAUUGGCAUUAGUGUUCAGUGCCAUUUUAUACUUUCUCU	0.455

Study 2 — method: RNA Bind-n-Seq; form: RNA; sample: in vitro; tested at: 200 nM; setting: whole 134-nt RNA, ends assumed; added: 150 mM LiCl; baseline: input library; direction: higher = stronger binding; library: 7-deaza-guanosine replaces G
Target: Ras GTPase-activating protein-binding protein 1, full length (G3BP1, Homo sapiens, UniProt Q13283)
UniProt Q13283, sequence (whole entry, looked up): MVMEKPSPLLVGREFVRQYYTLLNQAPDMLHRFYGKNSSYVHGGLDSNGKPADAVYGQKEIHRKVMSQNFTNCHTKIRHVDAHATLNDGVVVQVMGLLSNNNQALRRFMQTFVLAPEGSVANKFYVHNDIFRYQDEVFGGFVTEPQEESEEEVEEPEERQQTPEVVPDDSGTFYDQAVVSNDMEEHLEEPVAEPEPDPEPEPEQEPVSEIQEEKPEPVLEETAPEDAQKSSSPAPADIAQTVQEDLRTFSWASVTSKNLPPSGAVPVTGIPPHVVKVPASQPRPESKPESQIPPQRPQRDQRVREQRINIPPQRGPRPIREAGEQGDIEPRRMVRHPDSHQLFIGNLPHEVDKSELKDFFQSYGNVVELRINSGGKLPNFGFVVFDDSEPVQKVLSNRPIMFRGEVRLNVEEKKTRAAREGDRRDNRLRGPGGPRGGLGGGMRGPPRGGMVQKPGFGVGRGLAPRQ
Constant ends, left off below: GGGAGUUCUACAGUCCGACGAUC … UGGAAUUCUCGGGUGUCAAGG
Sequence	log2 enrichment
GGAAGGGGGCUUGCGCCACGGCAGUGAAUCUUCAUGGAUCUUCAUGCAGCCAUACAAACCCUGGUUCCAACAGAAUGGUGAAUUUUCGAC	-1.28
AAGUCCUGUGCUACACAUCGUAUGUACCGAAUCGGUUUUGGGGUUUUGGUUUUGGGGAAAGUAUUAUGUUACGCCGUUCGGAUCUGCACU	0.0941
UCUCCCAUCAAAGGACGUGCACAGCCUUAUGAUCCCAAUUUUUACGAUGAAACCUAUGAUUAUGGUGGUUUUACAAUGAUGUUUGAUGAC	1.03
UGUGCUACACAUCGUAUGUACCGAAUCGGGCCCCCCCGGGCCCCCCCGGGGCCCCCCCGGGGAAAGUAUUAUGUUACGCCGUUCGGAUCU	-0.213
AGUCCUGUGCUACACAUCGUAUGUACCGAAUCGGGUUUGGGUUUUUGGGUUUUUGGGAAAGUAUUAUGUUACGCCGUUCGGAUCUGCACU	-0.674
UGUGCUACACAUCGUAUGUACCGAAUCGGGGCCCCCCCGGGCCCCCCCGGGCCCCCCCGGGGAAAGUAUUAUGUUACGCCGUUCGGAUCU	0.0912
UCCUCAAGUCCUGUGCUACACAUCGUAUGUACCGAAUCGGGGCGGCGGCGGAAAGUAUUAUGUUACGCCGUUCGGAUCUGCACUUCCAGC	0.455
CUCAAGUCCUGUGCUACACAUCGUAUGUACCGAAUCGGAAGGGAAGGGAAGGGAAAGUAUUAUGUUACGCCGUUCGGAUCUGCACUUCCA	-0.0793
GUCCUGUGCUACACAUCGUAUGUACCGAAUCGGGGUUUUUGGGGAAAAAGGGGAGGGGAAAGUAUUAUGUUACGCCGUUCGGAUCUGCAC	-0.265
UUCCCACAGCCCAAAAAUCUUCUCAACAGUGUGAUUGGAAGAGCCCUCGGCAUCUCACAUGCAAAAGACAAACUAGUCUACGUGCACACA	1.13
UCAAGUCCUGUGCUACACAUCGUAUGUACCGAAUCGGGGCGGGGCGGGGCGGGGAAAGUAUUAUGUUACGCCGUUCGGAUCUGCACUUCC	0.0919

Study 3 — method: competition protein-binding microarray; form: double-stranded DNA, one strand shown; sample: in vitro; tested at: 2 µM; added: Cbf1 competitor, 0.05 µM; direction: higher = stronger binding; constant ends, left off below: … GTCTTGATTCGCTTGACGCTGCTG
Target: Phosphate system positive regulatory protein PHO4, full length, GST-tagged (PHO4, Saccharomyces cerevisiae, UniProt P07270, residues 1-312)
Setting: whole 60-bp probe, lowest competitor level
Residues (chain): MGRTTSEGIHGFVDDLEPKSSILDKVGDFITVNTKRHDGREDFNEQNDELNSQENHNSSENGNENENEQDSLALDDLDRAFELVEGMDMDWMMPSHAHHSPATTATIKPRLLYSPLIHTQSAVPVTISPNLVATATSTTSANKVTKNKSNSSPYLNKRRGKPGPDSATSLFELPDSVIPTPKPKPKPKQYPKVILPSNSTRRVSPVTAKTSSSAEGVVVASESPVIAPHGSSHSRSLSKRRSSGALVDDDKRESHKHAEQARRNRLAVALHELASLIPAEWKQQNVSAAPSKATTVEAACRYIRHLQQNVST
Sequence	fluorescence intensity [a.u.]
ATGTTCCACAATACAAGCGTGACTCGAGACGTAAGG	7000
CGTCCTAGTGATTGTCACGTTACTTCCATGAGGAAG	7310
CTTTCCCGATCTTGCACTGTGGGTGTAGCACATTTG	5620
CATACCCAACCTTGTCACGAGACTTAAGATATTTGT	7730
GAGGATGCTCTCGGCAGCGTGACTCGAATTGAGCCC	5620
GGTTCTGTTTCGATGCACGCTAGATTACTCGAACCA	5760
CTTTCCCGATCTTGGCCGGTGGGTGTAGCACATTTG	4430
TTCTAGCGCTTCCATCACGTGCTGTGGCGCTATGGT	17600
CTTCTGTAAATTTGTACCGTGGGTGGACGCGCCCCG	5930
GTTATAAGTGCTTTTCTCGTGCATCCCTTGGCACTT	6940
ACAAGGAAGGTATTCCACCTGACGAACAAAGATTGA	4220
CCTGCCCAGACCCTCCACGTGGGCACAGCAGCCAGG	17500
GCGCCTTTACGCCTTCACGTGGAACAAGACACTTTA	12200
TTCTGGACGTATCTGCACATGTGTGTTGCTTTTGTT	13800
CCTCAACAACGTCGGGGCGTGGGTATTGGGATATCG	10300
AATATGGCAGCCTCGCTGGTGTGCCACATAATATTA	4910
TGCGCAACAACTTGCCTAGTGGGTGTATGTCTAGAA	4400
CGATCGTAGCTTGGTGTCGTGATGGGGTTATTTCGG	4850
CTAACGAAGGTTTGTTAGGTGGGTGACAAGCCAAGT	3420
TGCGCAACAACTTGGACTGTGGGTGTATGTCTAGAA	5320
ATCTAGAATATCCTACACGTCATCAGCGATTATCCG	4950

Study 4 — method: protein binding microarray; form: double-stranded DNA, one strand shown; sample: in vitro; tested at: not given; baseline: not given; direction: higher = stronger binding
Target: Histone acetyltransferase KAT6A, both winged helices, GST fusion (KAT6A, Homo sapiens, UniProt Q92794, residues 1-181)
Setting: 8-mer, flanks averaged, mean of 2 arrays, mostly near background
Residues (chain): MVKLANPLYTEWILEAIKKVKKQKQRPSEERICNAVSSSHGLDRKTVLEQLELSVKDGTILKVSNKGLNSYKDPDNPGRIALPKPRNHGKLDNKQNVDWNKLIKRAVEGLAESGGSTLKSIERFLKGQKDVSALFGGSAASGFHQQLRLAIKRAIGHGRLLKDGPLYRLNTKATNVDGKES
Sequence	E-score
CACCTGCC	-0.0966
ACACCTAC	-0.107
GTCCGCAA	0.225
CACACGAG	-0.0547
CTTAAATC	-0.149
TACCGCGA	0.314
GATAGTCC	-0.0114
CTCGGGCC	0.0544
AGCGAGGG	-0.0798
GCAGATAA	-0.0245
GAGCGTGC	0.0803
CAAAGTGC	-0.122
CTATTGAC	-0.0661
GGAAACTA	-0.0226
ACTATACC	-0.136
AAGGCCAA	-0.219
GAGTCATA	-0.0834
CGCTAAAG	0.184
GAAAGCTA	-0.182
CACACTCG	-0.0576
CGAGTGAG	-0.0554
CCAGTACC	-0.0869
CATATTGG	-0.202
ACTTATAA	-0.129
GACCTTGA	-0.0387
